Assay results gathered from unrelated publications.
Every numbered part comes from another study and shows a few of its results, in no order. Substitutions count along the parent as printed.

Sample 1 — technique: protein binding microarray; form: double-stranded DNA, one strand shown; matrix: in vitro; tested at: not given; relative to: not given; direction: higher = stronger binding
Target: Histone acetyltransferase KAT6A, winged helix 2, GST fusion (KAT6A, Homo sapiens, UniProt Q92794, residues 85-181)
Notes: 8-mer, flanks averaged, mean of 2 arrays, mostly near background
Residues (chain): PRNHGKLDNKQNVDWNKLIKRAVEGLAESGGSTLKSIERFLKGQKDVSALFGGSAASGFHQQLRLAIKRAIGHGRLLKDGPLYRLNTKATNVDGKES
For `AATTGTTC`, the E-score was 0.143.
`AAGTGTGT` gave an E-score of 0.0243.
The E-score of `CATTCCAG` is reported as 0.0184.
With `CTATAATA` the E-score was -0.0326.
`CTTATTTA` has an E-score of -0.119.

Sample 2 — technique: protein-binding microarray; form: double-stranded DNA, one strand shown; matrix: in vitro; tested at: 2200 nM top; notes: 60-bp whole probe; added: salmon DNA 0.4 mg/ml; relative to: random background probes; direction: higher = stronger binding; constant ends, left off below: GCCTAGCAC … GTCTTGATTCGCTTGACGCTGCTG
Target: Interferon regulatory factor 7, full length, phosphomimetic (IRF7, Homo sapiens, UniProt Q92985, residues 1-503, S471D/S472D/S475D/S476D/S477D/S483D/S484D/S487D)
Sequence of UniProt Q92985 (whole entry, unmodified, looked up): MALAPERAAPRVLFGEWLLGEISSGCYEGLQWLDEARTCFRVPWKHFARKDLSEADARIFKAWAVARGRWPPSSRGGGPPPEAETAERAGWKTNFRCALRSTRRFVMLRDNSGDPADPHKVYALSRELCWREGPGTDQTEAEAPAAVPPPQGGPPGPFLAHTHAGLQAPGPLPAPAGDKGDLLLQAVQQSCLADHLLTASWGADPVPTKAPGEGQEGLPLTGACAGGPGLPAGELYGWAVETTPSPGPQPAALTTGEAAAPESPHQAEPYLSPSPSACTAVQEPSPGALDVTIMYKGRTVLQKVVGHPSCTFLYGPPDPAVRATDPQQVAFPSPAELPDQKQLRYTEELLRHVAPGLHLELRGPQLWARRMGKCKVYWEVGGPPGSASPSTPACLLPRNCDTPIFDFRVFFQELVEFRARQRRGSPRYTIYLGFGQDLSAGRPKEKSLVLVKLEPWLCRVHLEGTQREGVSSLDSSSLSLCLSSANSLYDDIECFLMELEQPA
`TAAGGACTGCTTCTCCTTTAGTGCTAG` — result for “fitted relative affinity”: 0.781 z-score.
Under “fitted relative affinity”, `TTAGGACTGGACAATCGGTTAGTGCTA` is recorded as -0.201 z-score.
For `TTACGACTGGGACTGGGTTAGTGCTAG`, “fitted relative affinity” read 0.0492 z-score.
`GACGGTTTCGGCATCGGGACGTGCTAG` — result for “fitted relative affinity”: 3.14 z-score.
Under “fitted relative affinity”, `GGTAGGCGGGGCCCCTGGCCGTGCTAG` is recorded as -1.08 z-score.
Under “fitted relative affinity”, `TCATTTAGAAATTTCTTACTGTGCTAG` is recorded as 0.536 z-score.
Under “fitted relative affinity”, `CTGTTTTTGCTTTCCTTCTTGTGCTAG` is recorded as 5.88 z-score.

Sample 3 — target: CCNB2, cyclin fold, Cln2 fusion (human); technique: yeast growth competition, sequencing; matrix: yeast; notes: strong parent motif; relative to: not given; direction: higher = stronger binding
Starting sequence: PKMYT1 docking peptide (human); SFEPRNLLSLFED; partner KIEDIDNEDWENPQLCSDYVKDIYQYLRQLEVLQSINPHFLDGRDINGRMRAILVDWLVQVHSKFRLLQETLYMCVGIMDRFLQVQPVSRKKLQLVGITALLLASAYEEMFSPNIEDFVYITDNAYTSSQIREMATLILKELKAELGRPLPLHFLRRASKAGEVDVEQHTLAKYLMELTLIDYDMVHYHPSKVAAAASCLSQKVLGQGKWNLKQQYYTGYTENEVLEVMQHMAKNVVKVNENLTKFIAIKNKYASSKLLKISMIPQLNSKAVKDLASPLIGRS
For `SFEPRNCLSLFED [L7C]`, “normalised enrichment score” read -0.389.
For `KFEPRNLLSLFED [S1K]`, “normalised enrichment score” read 0.851.
`SFEPRNLISLFED [L8I]`: “normalised enrichment score” 1.05.
Under “normalised enrichment score”, `SFEPRNLGSLFED [L8G]` is recorded as -0.41.
`SFERRNLLSLFED [P4R]` — result for “normalised enrichment score”: 1.3.
`SFEPRNLLSLFFD [E12F]`: “normalised enrichment score” -0.0321.

Further values, each from its own experiment
For `PhoQ, residues 284 288 289 292 302 303 HSYLQF`, the fold induction was 1.29 (PhoP, residues 12 14 15 18 19 QYFSL (Escherichia coli, UniProt P23836); Sort-seq, item: YFP reporter; E. coli; PhoQ-PhoP variant library, added: 10 µM Mg2+; relative to: high Mg2+ state, higher = stronger signaling).
